Measured values of several laboratories.
Compare with care: the assays were run in different laboratories. “And” joins repeats or separate records; there may be more than shown.

Compound	cell line	assay	conditions	how to read	quantity	result
CCN(CC)CC(=O)Nc1cccc(-n2cc(-c3ccc4ccc(-c5cn(-c6cccc(NC(=O)CN(CC)CC)c6)nn5)cc4c3)nn2)c1	RCC4	PCR array, refers to: EGF	5 x IC50, 6 h, normoxia	reference: untreated	fold regulation	1.59
CCC(=CCc1c(O)cc2c(c1O)C(=O)CC(c1cccc(OC)c1O)O2)CC (centres unmarked)	HeLa	cell growth or viability, MTT	50 µM, 48 h	–	inhibition	96.3%
C[C@@H]1CC[C@@H]([C@](O)(CNCc2cccc(F)c2)COCc2ccccc2)[C@H](OCc2ccccc2)C1	A2780	cell growth or viability, MTT	30 µM, 72 h	–	inhibition	95.4%
CC12CCCC(n3cc(C(N)=O)nn3)(C1)C1CC(C)(C)C1CC2 (centres unmarked)	HT-29	cell growth or viability, CCK-8	50 µM	–	inhibition	88.8%
CN1CCCNC(=O)c2cccc(c2)C(=O)NCCCN(C)CCCNc2cccc3c2C(=O)c2cccc(c2C3=O)NCCC1	SAS	RNA-Seq, refers to: LTBR mRNA	1 µM, 6 h	reference: untreated cells	log2 fold change	-1.08
CC1CN(C(=O)c2cn(C34CCCC(C)(CCC5C3CC5(C)C)C4)nn2)CCN1 (centres unmarked)	HT-29	cell growth or viability, CCK-8	10 µM	–	inhibition	66.3%
CC[C@H](NC(=O)[C@@H](NC(=O)[C@H](CC(=O)O)NC(C)=O)[C@@H](C)O)C(=O)N[C@@H](CC(=O)O)C(=O)COC(=O)c1c(C)cccc1C	THP-1 cells, LPS-primed	pyroptosis, LDH release	25 µM, LPS 1 µg/mL, 4 h, with: nigericin 5 µM, 2 h	–	cell lysis	76.4% and 72.5%
O=C(C[Se]C(=O)c1ccc2ccccc2n1)Nc1cccc(C(F)(F)F)c1	NCI60 NSCLC subpanel mean	cell growth	–	–	TGI	3.5 µM
Cc1ccc2nc(C)n(/N=C/c3ccc(C(=O)O)cc3)c(=O)c2c1	LoVo	cell growth or viability, LDH	200 µg/mL, 24 h	–	viability	32.5%
O=S(=O)(N[C@H]1CCO[C@@H](C2c3ccccc3CCc3ccccc32)C1)c1ccc(OC(F)(F)F)cc1	D341	immunoblot	concentration not given	–	I2PP2A protein level	increased
CCCNc1ncc2c(/C=C/C(=O)N3CCC(OC)CC3)nn(Cc3cccc(C(F)(F)F)c3)c2n1	OE33	cell growth or viability, resazurin	5 days	–	EC50	3.16 µM
CCC(=CCc1c(O)cc2c(c1O)C(=O)CC(c1cc(OC)ccc1O)O2)CC (centres unmarked)	HeLa	cell growth or viability, MTT	25 µM, 48 h	–	inhibition	17.9%
CNS(=O)(=O)Nc1nccc(Cc2c(C)c3ccc(Oc4ncccc4F)cc3oc2=O)c1F	JHH7	cell viability	7 days	–	IC50	0.00941 µM
CCCCCCc1cccc([C@H](O)C[C@H](CO)NC(=O)CCCCCOc2ccc3ccccc3c2)c1	HeLa	CERT activity, HPLC-MS/MS lipidomics	1 µM, 24 h, not cell-number normalised	–	total ceramide level	63000 pmol/sample and 33700 pmol/sample and 57700 pmol/sample
Cc1ncsc1-c1ccc(C(C)NC(=O)C2CC(O)CN2C(=O)C(NC(=O)CCCCCCCCCCN2CCCC(Nc3ncc(Cl)c(Nc4ccccc4S(=O)(=O)C(C)C)n3)C2)C(C)(C)C)cc1 (centres unmarked)	22Rv1	RNA-seq, refers to: TPPP mRNA	concentration not given	reference: DMSO	log2 fold change	-1.36
Cc1ccc(-n2cc(CSc3nc4ccccc4n3Cc3cn(-c4ccc(C)cc4)nn3)nn2)cc1	Caco-2	MTT	250 ppm	–	cytotoxicity	89.3%
Cc1cc(Cl)cc(-c2ccnc3cc(CN4C(=O)C5C(C4=O)C5(C)C)sc23)c1C[C@@H]1CNCCO1 (some centres unmarked)	CHP-212 resistant cells (pooled)	annexin V-PI flow cytometry	0.3 µM, 48 h	–	apoptotic cells (early plus late)	6.37% and 13.6% and 13.4%
